Measured values gathered from unrelated publications.
Each numbered part is a random draw from the data of one study; scales do not carry over between parts. Changes are numbered by the printed parent chain.

Sample 1
Target: CCNB2, cyclin fold, Cln2 fusion (human)
Technique: yeast growth competition, sequencing
Medium: yeast
Setting: weak parent motif
Reference: not given
Direction: higher = stronger binding
Starting sequence: RBL2 docking peptide (human); STTRRRLFVENDS; partner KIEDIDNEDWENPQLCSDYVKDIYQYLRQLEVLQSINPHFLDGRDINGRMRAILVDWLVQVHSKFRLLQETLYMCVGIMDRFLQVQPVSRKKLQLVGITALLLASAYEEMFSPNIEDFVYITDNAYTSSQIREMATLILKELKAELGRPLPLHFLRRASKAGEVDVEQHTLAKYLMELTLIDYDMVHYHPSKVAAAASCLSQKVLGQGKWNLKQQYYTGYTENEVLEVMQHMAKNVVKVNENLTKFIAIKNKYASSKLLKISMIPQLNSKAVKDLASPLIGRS
Substitution	normalised enrichment score
R6S	0.469
S1D	0.785
F8D	-0.146
E10M	0.974
V9L	-0.122
R5L	0.0135
E10K	-0.0936
L7P	0.413
V9Q	0.221
L7S	-0.0335
T3I	1.15
N11V	0.534
R5D	-0.297
R5M	0.399
V9R	0.289
T2Y	-0.0434
S1C	0.614
N11T	0.348
S13Q	-0.0273
T2N	0.585
T2A	0.508
N11W	0.398
N11D	0.768
R4N	-0.373
L7F	0.232

Sample 2
Target: RNA binding protein fox-1 homolog 2, RRM domain, GST-SBP tag (RBFOX2, Homo sapiens, UniProt O43251-10, residues 100-194)
Technique: RNA Bind-n-Seq
Form: RNA
Medium: in vitro
Concentration: 365 nM
Setting: natural RNA segment, single round, ends assumed
Reference: no-protein control
Direction: higher = stronger binding
All sequences stand within: GGGAGUUCUACAGUCCGACGAUC … UGGAAUUCUCGGGUGCCAA
Target sequence (chain): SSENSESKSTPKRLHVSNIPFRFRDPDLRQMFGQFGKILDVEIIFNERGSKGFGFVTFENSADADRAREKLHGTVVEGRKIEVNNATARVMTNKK
Oligonucleotide	RBNS enrichment (R)
AAGGCAUGCCUCUCCCACAGGAAGAGGGGAGCAGACAGGGAAAUCUGCCUACCAAGAGGGGUGUGUGUGUCUUUGUGCCCACACGUGGUGGCUGGGGAGUGCCUGGAUGG	0.636
AACACAGAAGCAACGAGAAAUGUGACUCUUGUUAUUUUAAACCACAGACGGACUUGGGUUAAGGGAAUGGGGACGACAGCUUUGGUGCUAAGUUAAUCAGAAAUUGCGAG	0.751
GAAAUCAGGAUAAUUAGUAACAAUUCUAGUUCUUUCUCUCCCCGCUCUACUUCUUUUUUUUCCCUCUUUCUCCCUUUCUCUGUCUAUCACCCUCCAUUUUUUCAUUACUC	1.22
UAGAACUUAGCAGAGGUUGAGCUCUGCUGCACAUUGGCAGACCAGGUCAGGAUGUCUGCAGUUGGAGAUGUAAAUAUUUUGUACAGUAAAUAAAAUGCCUACAAUAAUAA	1.22
UGUUAAUAAACUUUACACAGUAAAUAGACACACUUUCUGCAAUGUACUGACAUGAGUGUCCAAUAUAUGGUAUAUUUUUCUAAUAUAAUACUCUGGUAUGAUUGGUUCUG	0.394
AUAAUAGGUUUAUUAACUGAAUUUCAUUAGUUUUUUAAAAGUGUUUUUGGUUUGUGUAUAUAUACAUAUACAAAUACAACAUUUACAAUAAAUAAAAUACUUGAAAUUCU	0.615
ACACAGUGCAGAGCAGAGCCCAGGAGGGGCCACAGGCAUCAGUGAACUCUCCUUGCCUAGGAUGGCAACUGAUUUUGCUCUCUUUGGAAAGAUUCUAGAUAAGUCAGCAU	0.622
GCUUUCAGUACUCGUGUUAAUAUGUUUCUAUGGCAACUCUGAGGUCAGUGGUUUAGAAAUGAGAUACCAGUGUUAAUGAAAAGUGUGUGCUCUUUGCUUUUGCAUGGCUU	1.24
GUGGCAGGGCAGAAACUGGGCAGCCCUGACUUGAUAGCAGCAGGGGGAGCUCCCAAGCUGCCAAGCCCCUGCCUCCAGCCUUCCUGAGUUUCUCUCUCCUGAACCCUACU	0.967
UUUUGGGGGUCUUUAGACUCUUGAAGGCAACUCAGGGUAUUGUCCACGCAGCUCUCUGGUUAGACUUCUCCCAGGCUAUGAUCCUGGCAUGUCCUUUAUAAGGUAUACUU	0.325
GUUUUAUGGUGCCUGAGUUAGUCCUGUGCCUAACCAGUGGAGUUUCCGUCUCUGUGCUUGCUAAUAGUUUCACAAGUGGCUUGACUUUUUUAGAAGUAUUAUGUGGUAUU	0.981
GAGAUUUUAUAUUUAUAAUCAACACGUGGGUUAACAUGUUUUUUUGAAAUCCAAGCAAUACACAGGAAAUUUAAGUAGAAUAAAAAUUGCAGCCCAUUUUUGAAAUGUCA	0.709

Sample 3
Target: ABI1, truncated, D143A, DHFR fusion (Arabidopsis thaliana, UniProt P49597)
Technique: DHFR PCA, dose-response
Medium: yeast
Setting: Hill fit, mean, not affinity
Added: (+)-ABA, dose series
Direction: lower = more sensitive
Starting sequence: PYL1, truncated, DHFR fusion (Arabidopsis thaliana, UniProt Q8VZS8); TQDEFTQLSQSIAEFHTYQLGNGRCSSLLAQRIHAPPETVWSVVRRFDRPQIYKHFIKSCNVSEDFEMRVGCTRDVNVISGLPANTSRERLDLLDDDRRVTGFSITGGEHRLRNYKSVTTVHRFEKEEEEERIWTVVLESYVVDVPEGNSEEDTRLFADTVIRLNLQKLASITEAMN
Substitution	ABA EC50 [µM]
H16G	830
Q19V	1.92
E131F	5.14
D153N	63.3
D48S	53.2
F15C	25.8
F66Q	2.88
T160K	9.74
E174M	12.2
R132E	0.765
G21F	8.18
E127I	2.82
E109G	14.3
G107T	96.8
E125N	2.27
E38V	66.9
L164G	22.7
F15W	2.65
L94A	286
L82M	14.1
D96L	218
N61F	2.39
T160Y	4.33
N61Q	2.83
S26W	9.01

Sample 4
Target: Hepatocyte nuclear factor 3-alpha (Foxa1, Mus musculus, UniProt P35582, residues 1-468, full length assumed)
Technique: EMSA with sequencing
Form: double-stranded DNA, one strand shown
Medium: in vitro
Concentration: 10 and 20 nM
Setting: whole designed probe, mean of two concentrations, ends assumed
Reference: negative control set to 0
Direction: higher = stronger binding
All sequences stand within: GTGAGCGGTGCCCATTGATGGGGAAC … TTTCACTGGGATCGTGGGGAC
Target sequence (chain): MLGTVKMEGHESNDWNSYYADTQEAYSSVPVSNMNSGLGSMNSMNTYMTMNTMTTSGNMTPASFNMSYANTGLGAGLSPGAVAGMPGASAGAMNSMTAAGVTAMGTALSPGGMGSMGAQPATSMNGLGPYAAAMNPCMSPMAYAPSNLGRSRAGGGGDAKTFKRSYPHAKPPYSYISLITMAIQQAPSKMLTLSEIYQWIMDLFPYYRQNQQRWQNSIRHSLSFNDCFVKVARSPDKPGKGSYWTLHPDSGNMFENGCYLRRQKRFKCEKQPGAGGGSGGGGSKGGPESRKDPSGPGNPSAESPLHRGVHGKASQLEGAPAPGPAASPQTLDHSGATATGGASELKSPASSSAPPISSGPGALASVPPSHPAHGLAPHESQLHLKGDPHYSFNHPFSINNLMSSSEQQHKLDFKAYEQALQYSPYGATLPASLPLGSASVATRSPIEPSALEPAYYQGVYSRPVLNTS
Oligonucleotide	normalised bound fraction [ratio]
TTAATAAAGCAGCAAGACCAGAGGTTGGGTTCTTGTATTGTTGCTTGAAGCAGTGTTAAAGATACACCGACATGACTAAAATGCATTGCTGAGTAAACAAGCACGGATTTTAAAGTTTAATATGATTAATGCAACTTGATGCCAAACTCTGAATGTCTCCTAAGGCTTCCAAGTTACTGAAAAGCAGCCAATA	0.384
CTGGAGAAATACAGTACGAAACCCAGCAGGCTTCTGCAATCTACACATCCCTTTAAGTTAATTGGTGTTATATAGAAGCTGAAATGCTCCGCTAAATTACAAAGCTACAGATTTATGTAAAGCAAAACCAATTACACTTAATGCCTAAACTATTCCAGGTGCTCAATGATAATGTTGCTAGGCAGTAGAGAAG	-0.0161
GGAAGCTGAACTAGGCAGTGGGTCCCCAGGGATGGTGGGAAGTGACGAGGGCTCAGGGATCTGCCCACTTACTCTTTATTTGCAAACAGTATGTAAACACACATGCAAGCTGTCACTGCCCTCAGGGCGCTGGCATGCTGCCACCCCAGCCCCTGGATCCTGGTGCTTGGGCGCCTTGGCTTTATAGCATTTG	0.421
ATCTTCCCCCTCTTCCTTGCCCCACCAGCTCACCTTCCCGGGTTATTTGCACAAAGGAAAATAAATAAAGCCGGCATTCGTTAACCCTCTTCACGCGCATACTGCTGTTTGCTCTGGATCTAACATGGTCCTTTGGCGACGCCAGGCTCCGGGAGAGCAAAGCACCGTGTCAGGGCCATGATCCGGGGTGGCC	0.374
ACTAAATACAAACGATTAGAGCGTCACGGAAGATTAGCAAACATTCTACTGCAAACAGCACTCCCAGATCCACAGAAACCAGGTCACTACTATGTAAACATTTTGCACCACTTCGTAAACAGATAAAAATATCAAGTCAGTTTGGTGTAAACAGACCAACAGCAGGAGAAGCCAGCATCCTTCTTAGATGGGA	0.479
ATCTTCCCCCTCTTCCTTGCCCCACCAGCTCACCTTCCCGGGTTATTTGCAGATAGGAAAATAAATAAAGCCGGCATTCGTTAACGCAGTTCACGCGCATACTGCTGTTTGCTCTGGATCTAACATGGTCCTTTGGCGAGGCGTGGCTCCGGGAGAGCAAAGCACCGTGTCAGGGCCATGATCCGGGCTCGCC	0.352
TCGCCTGCTTTGGAGACGTGGCTGGCGGTGCTGCAGTGGCCTCAGTGAGCGTAAGGTTGACTGGAAGTAGGTTTCTAATTGTCTAATGCTGTTGTTTACTTTGAGTGCATGTTGTGGGGGTTGGGGAGACGCTGGTCGGCAGGCCACCTGCTACAGCCCCAGCTCACGTGTGTGTTGTGAAGGAGCGCTGCAC	0.44
CAGCCGGCCTAGACTTCAGGTCTAGTTAGCACACATTCTTATGCCCACCTTTTCCAACTTCACAGGCGCCTCTCATCTCTCCGTTAAGCTCTTGTTTACTCAGGACCACATATTTTAGTAATTGGTGGCTCACTCATTGCTTCACATCTATTCGGTTCCCGTTGCCACTGTATTTTGACAACATGTATTGCTT	0.444

Other studies, line by line
Molecule	target	assay	test system	conditions	scale	measurement	result
PhoQ, residues 284 288 289 292 302 303 SNGLAW	PhoP, residues 12 14 15 18 19 HEGLL (Escherichia coli, UniProt P23836)	Sort-seq, measured: YFP reporter	E. coli	PhoQ-PhoP variant library, added: 10 µM Mg2+	reference: high Mg2+ state, higher = stronger signaling	fold induction	2.09
